Published values pooled from the literature.
Parts stem from different laboratories: compare values within a part only. Positions count from the first letter of the parent shown.

Study 1 — target: CCNB2, cyclin fold, Cln2 fusion (human); method: yeast growth competition, sequencing; sample: yeast; setting: strong parent motif; relative to: not given; reading: higher = stronger binding; endpoint: normalised enrichment score
Starting sequence: MICAL3 docking peptide (human); LQLRRQLSFSEDS; partner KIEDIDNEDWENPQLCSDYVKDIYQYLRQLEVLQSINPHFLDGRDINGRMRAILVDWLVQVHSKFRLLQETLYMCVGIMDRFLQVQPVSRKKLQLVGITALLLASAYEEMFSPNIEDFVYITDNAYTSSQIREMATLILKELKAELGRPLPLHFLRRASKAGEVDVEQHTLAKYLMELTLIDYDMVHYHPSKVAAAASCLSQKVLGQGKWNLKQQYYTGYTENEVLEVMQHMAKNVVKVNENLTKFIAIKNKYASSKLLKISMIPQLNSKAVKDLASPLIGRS
Variant = LQLRRQLSASEDS [F9A]; result = 0.124
Variant = LCLRRQLSFSEDS [Q2C]; result = 3.6
Variant = LQLRRQLSFSELS [D12L]; result = 2.51
Variant = LTLRRQLSFSEDS [Q2T]; result = 3.24
Variant = LQLRRQLSFTEDS [S10T]; result = 2.49
Variant = LQLRRQPSFSEDS [L7P]; result = 0.0663
Variant = LQLRRQLSESEDS [F9E]; result = 0.338
Variant = LQLRRQLMFSEDS [S8M]; result = 1
Variant = LQLRRQLSFFEDS [S10F]; result = 1.09
Variant = LQLRRTLSFSEDS [Q6T]; result = 3.04
Variant = LQLRRQLSFSKDS [E11K]; result = 1.38
Variant = LQIRRQLSFSEDS [L3I]; result = 4.03
Variant = LQLGRQLSFSEDS [R4G]; result = -0.0279
Variant = LQRRRQLSFSEDS [L3R]; result = 0.536
Variant = LQQRRQLSFSEDS [L3Q]; result = 0.339
Variant = LQLRRQLSVSEDS [F9V]; result = 0.178
Variant = LQLRRLLSFSEDS [Q6L]; result = 0.871
Variant = LQLRRFLSFSEDS [Q6F]; result = 0.854
Variant = LQLKRQLSFSEDS [R4K]; result = 2.37
Variant = LQLRRQLSFMEDS [S10M]; result = 1.45

Study 2 — method: DHFR PCA, deep sequencing; sample: yeast; together with: (+)-ABA 58 µM; relative to: wild-type fitted maximum; reading: higher = stronger binding; endpoint: relative binding score
Target: ABI1, truncated, D143A, DHFR fusion (Arabidopsis thaliana)
Setting: methotrexate growth selection, single substitutions
Starting sequence: PYL1, truncated, DHFR fusion (Arabidopsis thaliana); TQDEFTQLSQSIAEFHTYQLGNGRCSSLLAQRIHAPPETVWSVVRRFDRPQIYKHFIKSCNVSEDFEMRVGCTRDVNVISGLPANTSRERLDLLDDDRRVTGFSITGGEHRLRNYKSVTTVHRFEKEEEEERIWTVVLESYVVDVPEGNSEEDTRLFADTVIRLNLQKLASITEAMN; partner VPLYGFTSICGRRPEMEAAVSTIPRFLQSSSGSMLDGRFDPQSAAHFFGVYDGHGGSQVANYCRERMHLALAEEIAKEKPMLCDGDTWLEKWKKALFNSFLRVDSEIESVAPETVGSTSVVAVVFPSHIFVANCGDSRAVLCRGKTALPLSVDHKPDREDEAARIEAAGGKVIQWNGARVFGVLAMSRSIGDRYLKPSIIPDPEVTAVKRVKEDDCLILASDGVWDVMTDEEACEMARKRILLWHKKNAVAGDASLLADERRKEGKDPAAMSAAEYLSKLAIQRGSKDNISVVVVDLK
Variant = D92K; result = -5.49%
Variant = A13W; result = 67.9%
Variant = S150V; result = 56.1%
Variant = A84I; result = 12.2%
Variant = V142D; result = 58.6%
Variant = P146E; result = 11.2%
Variant = F5T; result = 86.9%
Variant = S42M; result = 84.2%
Variant = R45E; result = -5.98%
Variant = N114M; result = 17.2%
Variant = E14I; result = 65%
Variant = L82P; result = 53.2%
Variant = P36G; result = 66.8%
Variant = T154K; result = 16.2%
Variant = V118I; result = 87.8%
Variant = I57N; result = -3.31%

Study 3 — target: CREB3L4, bZIP domain (human); method: DHFR protein complementation; sample: yeast; relative to: wild-type JUN-FOS pair; reading: higher = stronger binding; endpoint: binding fitness
Setting: single substitutions, most at no-binding floor
Starting sequence: JUN, bZIP domain (human); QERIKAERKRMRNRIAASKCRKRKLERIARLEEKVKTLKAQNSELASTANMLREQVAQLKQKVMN; partner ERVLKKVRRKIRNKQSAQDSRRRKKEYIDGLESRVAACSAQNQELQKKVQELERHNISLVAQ
Variant = L45F; result = -1.53 natural log
Variant = V35S; result = -1.43 natural log
Variant = I28A; result = -1.48 natural log
Variant = A29K; result = -1.39 natural log
Variant = V56M; result = -1.33 natural log
Variant = V35E; result = -1.41 natural log
Variant = Q41A; result = -1.42 natural log
Variant = L45M; result = -1.54 natural log
Variant = K39R; result = -1.27 natural log
Variant = L52E; result = -1.59 natural log
Variant = T37P; result = -1.54 natural log
Variant = N42W; result = -1.47 natural log
Variant = M51K; result = -1.49 natural log
Variant = S43Y; result = -1.45 natural log
Variant = Q41G; result = -1.52 natural log
Variant = S43Q; result = -1.4 natural log
Variant = L52K; result = -1.42 natural log
Variant = N42A; result = -1.5 natural log
Variant = L45K; result = -1.46 natural log
Variant = I28S; result = -1.48 natural log
Variant = A57V; result = -1.57 natural log
Variant = S47C; result = -1.48 natural log
Variant = Q41K; result = -1.43 natural log
Variant = L59P; result = -1.5 natural log
Variant = A49K; result = -1.04 natural log

Study 4 — method: RNA Bind-n-Seq; molecule type: RNA; sample: in vitro; concentration: 200 nM; setting: whole 134-nt RNA, ends assumed; together with: 150 mM LiCl; relative to: input library; reading: higher = stronger binding; endpoint: log2 enrichment; library: 7-deaza-guanosine replaces G
Target: Fragile X messenger ribonucleoprotein 1, C-terminal low-complexity region (Fmr1, Mus musculus, UniProt P35922)
Constant ends, left off below: GGGAGUUCUACAGUCCGACGAUC … UGGAAUUCUCGGGUGUCAAGG
Oligonucleotide = AGUCCUGUGCUACACAUCGUAUGUACCGAAUCGGGGUUUUGGGUUUUGGGGUUUUGGAAAGUAUUAUGUUACGCCGUUCGGAUCUGCACU; result = -1.44
Oligonucleotide = GCAGGAAGUAAAAACAAAUGGAAAUGCUUCGGAUAGUGGCAGGGGUGGGGGUUGCUAAGGAAAGGGUGGGAUGGAAGUGGGUAAAGAGUU; result = 1.37
Oligonucleotide = AGUCCUGUGCUACACAUCGUAUGUACCGAAUCGGGGAAAGGGGAAAAAGGGGAGGGGAAAGUAUUAUGUUACGCCGUUCGGAUCUGCACU; result = 0.0976
Oligonucleotide = CUGUGCUACACAUCGUAUGUACCGAAUCGGGGAAAAAAAGGAAAAAAAGGAAAAAAAGGGGAAAGUAUUAUGUUACGCCGUUCGGAUCUG; result = 0.13
Oligonucleotide = ACCAUGCAGGUGGGCAUCUUUGAGAAGUGGGGCAAGGGGGGGAUAGGGAGGGGGGUAACACUUUGGGAACAGGUGGUCCCAGGUCGUUUC; result = 1.48
Oligonucleotide = UUGAUGUUAGUAAAUUUGGUGUAAUACGUGGGGCUUCCAUAUUUCAAAGUGGAAGCUUUCUUCUCUGAAGUCGAUAUAUGGUUUUGAAUU; result = -0.893
Oligonucleotide = CAAGUCCUGUGCUACACAUCGUAUGUACCGAAUCGGUGGUUUUUUUGGUUUUUGGAAAGUAUUAUGUUACGCCGUUCGGAUCUGCACUUC; result = -1.18
Oligonucleotide = UGGGAGGUGGAUUUUGUUUAUUUUUUUGGCUCAUUUCCAGGGGUGGGAAUUUUUUUUUAAUAUGUGUCAUGAAUAAAGUUGUUUUUGAAA; result = 0.399
Oligonucleotide = AGUCCUGUGCUACACAUCGUAUGUACCGAAUCGGAAAAAGGGAAAAAGGAAAAAGGGGAAAGUAUUAUGUUACGCCGUUCGGAUCUGCAC; result = -0.786
Oligonucleotide = CUCAAGUCCUGUGCUACACAUCGUAUGUACCGAAUCGGGUUGGUUGGGGUUGGGAAAGUAUUAUGUUACGCCGUUCGGAUCUGCACUUCC; result = -0.485
Oligonucleotide = UGGCCCUGGUGGCAUGCGGGGAGGAAGAGGUGGCCUCAUGGAUCGUGGUGGUCCCGGUGGAAUUUUCAGAGGUGGCCGUGGUGGAGACAG; result = 0.133

Study 5 — method: protein binding microarray; molecule type: double-stranded DNA, one strand shown; sample: in vitro; concentration: not given; relative to: not given; reading: higher = stronger binding; endpoint: E-score
Target: Histone acetyltransferase KAT6A, winged helix 2, GST fusion (KAT6A, Homo sapiens, UniProt Q92794, residues 85-181)
Setting: 8-mer, flanks averaged, mean of 2 arrays, mostly near background
Target sequence (chain): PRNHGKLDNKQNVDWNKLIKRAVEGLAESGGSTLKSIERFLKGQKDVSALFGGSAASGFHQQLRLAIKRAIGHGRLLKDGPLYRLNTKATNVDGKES
Oligonucleotide = CTAAAACA; result = -0.0864
Oligonucleotide = ACGGAGGC; result = -0.0633
Oligonucleotide = AAAAAATC; result = 0.0507
Oligonucleotide = ACGGGCAG; result = 0.069
Oligonucleotide = TGCTGTAA; result = 0.13
Oligonucleotide = AGACTATC; result = -0.0907
Oligonucleotide = GAAGAGCA; result = 0.0398
Oligonucleotide = AGGCCAGG; result = 0.0493
Oligonucleotide = ACGTACGG; result = -0.189
Oligonucleotide = ACTAAAAG; result = 0.108
Oligonucleotide = AGGTAGTC; result = -0.0749
Oligonucleotide = CCGTGCAG; result = -0.0976
Oligonucleotide = AGCACTGC; result = -0.0191
Oligonucleotide = ATCACCAG; result = 0.0037
Oligonucleotide = GCGGACAA; result = 0.195
Oligonucleotide = CGCCATTA; result = 0.0472
Oligonucleotide = ACCTTCCA; result = -0.0877
Oligonucleotide = GCTATGGA; result = -0.207
Oligonucleotide = ATACGGAT; result = -0.0765
Oligonucleotide = CGACCGTC; result = -0.143
Oligonucleotide = AAGGGAAA; result = 0.0103

Mixed results
Molecule = PhoQ, residues 284 288 289 292 302 303 AGCYAI; target = PhoP, residues 12 14 15 18 19 VHSCL (Escherichia coli, UniProt P23836); assay = Sort-seq, item: YFP reporter; test system = E. coli; setting = PhoQ-PhoP variant library, together with: 10 µM Mg2+; scale = relative to: high Mg2+ state, higher = stronger signaling; endpoint = fold induction; result = 2.32

Repeated from above (study 5):
Oligonucleotide = ACGGGCAG; result = 0.069
Oligonucleotide = TGCTGTAA; result = 0.13
Oligonucleotide = AGACTATC; result = -0.0907
Oligonucleotide = GAAGAGCA; result = 0.0398
Oligonucleotide = AGGCCAGG; result = 0.0493
Oligonucleotide = ACGTACGG; result = -0.189
Oligonucleotide = ACTAAAAG; result = 0.108
Oligonucleotide = AGGTAGTC; result = -0.0749
Oligonucleotide = CCGTGCAG; result = -0.0976
Oligonucleotide = AGCACTGC; result = -0.0191
Oligonucleotide = ATCACCAG; result = 0.0037
Oligonucleotide = GCGGACAA; result = 0.195
Oligonucleotide = CGCCATTA; result = 0.0472
Oligonucleotide = ACCTTCCA; result = -0.0877
